Assay results pooled from the literature.
UniProt Q8N5S9, sequence (whole entry, looked up): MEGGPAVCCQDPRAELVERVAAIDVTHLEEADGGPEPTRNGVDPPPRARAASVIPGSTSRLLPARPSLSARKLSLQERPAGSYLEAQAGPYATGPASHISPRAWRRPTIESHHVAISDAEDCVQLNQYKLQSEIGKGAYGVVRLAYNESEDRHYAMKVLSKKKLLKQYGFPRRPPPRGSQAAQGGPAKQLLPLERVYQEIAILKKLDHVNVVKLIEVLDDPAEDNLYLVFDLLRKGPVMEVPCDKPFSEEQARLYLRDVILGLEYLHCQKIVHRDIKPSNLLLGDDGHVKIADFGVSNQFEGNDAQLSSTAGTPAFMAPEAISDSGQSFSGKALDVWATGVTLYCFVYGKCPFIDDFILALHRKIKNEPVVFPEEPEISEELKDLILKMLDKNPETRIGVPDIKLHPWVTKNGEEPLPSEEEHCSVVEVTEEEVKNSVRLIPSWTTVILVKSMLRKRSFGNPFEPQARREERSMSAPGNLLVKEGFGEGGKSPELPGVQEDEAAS
UniProt Q96RR4, sequence (whole entry, looked up): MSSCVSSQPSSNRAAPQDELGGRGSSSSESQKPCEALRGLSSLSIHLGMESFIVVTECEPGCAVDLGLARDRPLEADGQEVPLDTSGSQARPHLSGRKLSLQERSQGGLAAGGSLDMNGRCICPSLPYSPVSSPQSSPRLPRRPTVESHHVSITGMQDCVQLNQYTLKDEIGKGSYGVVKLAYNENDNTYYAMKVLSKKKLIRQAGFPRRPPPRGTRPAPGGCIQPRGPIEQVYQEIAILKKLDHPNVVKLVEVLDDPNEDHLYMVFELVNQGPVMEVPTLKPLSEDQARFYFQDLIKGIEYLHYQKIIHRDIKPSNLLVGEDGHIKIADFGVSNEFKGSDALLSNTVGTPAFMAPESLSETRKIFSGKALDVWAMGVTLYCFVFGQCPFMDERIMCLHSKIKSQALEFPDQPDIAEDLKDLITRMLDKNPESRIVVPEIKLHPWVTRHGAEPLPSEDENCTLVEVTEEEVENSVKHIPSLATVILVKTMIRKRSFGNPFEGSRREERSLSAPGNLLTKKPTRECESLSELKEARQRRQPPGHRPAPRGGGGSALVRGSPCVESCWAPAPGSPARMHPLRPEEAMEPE
UniProt P29597, sequence (whole entry, looked up): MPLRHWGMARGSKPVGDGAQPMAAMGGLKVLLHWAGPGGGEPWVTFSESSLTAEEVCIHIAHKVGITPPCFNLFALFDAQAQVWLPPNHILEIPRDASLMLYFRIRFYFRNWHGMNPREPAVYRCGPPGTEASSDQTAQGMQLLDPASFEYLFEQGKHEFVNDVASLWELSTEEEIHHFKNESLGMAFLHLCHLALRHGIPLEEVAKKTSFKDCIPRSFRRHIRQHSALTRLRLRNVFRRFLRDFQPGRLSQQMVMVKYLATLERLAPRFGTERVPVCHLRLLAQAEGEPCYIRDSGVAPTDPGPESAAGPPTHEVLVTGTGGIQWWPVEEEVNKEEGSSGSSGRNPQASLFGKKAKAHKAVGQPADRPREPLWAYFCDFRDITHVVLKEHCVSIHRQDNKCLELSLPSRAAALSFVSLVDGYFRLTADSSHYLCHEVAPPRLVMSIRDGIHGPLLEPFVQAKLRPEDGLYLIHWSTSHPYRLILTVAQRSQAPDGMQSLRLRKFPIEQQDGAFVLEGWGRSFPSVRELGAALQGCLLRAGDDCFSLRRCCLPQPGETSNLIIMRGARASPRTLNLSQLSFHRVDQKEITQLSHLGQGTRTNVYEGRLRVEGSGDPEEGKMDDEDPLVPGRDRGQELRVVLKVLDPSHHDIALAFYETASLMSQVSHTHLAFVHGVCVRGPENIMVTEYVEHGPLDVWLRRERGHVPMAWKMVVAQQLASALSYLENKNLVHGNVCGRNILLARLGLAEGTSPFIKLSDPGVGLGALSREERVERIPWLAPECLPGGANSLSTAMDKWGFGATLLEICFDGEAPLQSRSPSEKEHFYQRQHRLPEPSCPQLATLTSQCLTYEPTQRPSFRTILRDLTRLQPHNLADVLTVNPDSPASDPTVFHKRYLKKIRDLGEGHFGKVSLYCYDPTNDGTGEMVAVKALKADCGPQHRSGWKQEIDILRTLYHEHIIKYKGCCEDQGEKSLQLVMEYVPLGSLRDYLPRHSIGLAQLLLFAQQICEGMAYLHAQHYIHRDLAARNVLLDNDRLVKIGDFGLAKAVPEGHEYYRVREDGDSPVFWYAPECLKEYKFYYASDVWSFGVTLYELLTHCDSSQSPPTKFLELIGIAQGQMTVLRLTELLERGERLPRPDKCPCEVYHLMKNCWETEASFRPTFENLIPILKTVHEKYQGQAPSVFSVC
UniProt P78368, sequence (whole entry, looked up): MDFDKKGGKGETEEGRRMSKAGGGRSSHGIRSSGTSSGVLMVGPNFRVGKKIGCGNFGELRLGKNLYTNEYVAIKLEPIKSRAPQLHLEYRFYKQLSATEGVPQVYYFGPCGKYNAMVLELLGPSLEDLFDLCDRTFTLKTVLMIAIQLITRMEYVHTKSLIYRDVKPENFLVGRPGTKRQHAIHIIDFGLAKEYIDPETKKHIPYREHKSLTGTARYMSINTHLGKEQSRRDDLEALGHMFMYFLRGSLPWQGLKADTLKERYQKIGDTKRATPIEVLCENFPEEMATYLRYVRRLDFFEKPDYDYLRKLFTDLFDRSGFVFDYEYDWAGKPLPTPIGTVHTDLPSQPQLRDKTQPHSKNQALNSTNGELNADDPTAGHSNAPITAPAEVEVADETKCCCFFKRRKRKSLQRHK
UniProt Q8IWQ3, sequence (whole entry, looked up): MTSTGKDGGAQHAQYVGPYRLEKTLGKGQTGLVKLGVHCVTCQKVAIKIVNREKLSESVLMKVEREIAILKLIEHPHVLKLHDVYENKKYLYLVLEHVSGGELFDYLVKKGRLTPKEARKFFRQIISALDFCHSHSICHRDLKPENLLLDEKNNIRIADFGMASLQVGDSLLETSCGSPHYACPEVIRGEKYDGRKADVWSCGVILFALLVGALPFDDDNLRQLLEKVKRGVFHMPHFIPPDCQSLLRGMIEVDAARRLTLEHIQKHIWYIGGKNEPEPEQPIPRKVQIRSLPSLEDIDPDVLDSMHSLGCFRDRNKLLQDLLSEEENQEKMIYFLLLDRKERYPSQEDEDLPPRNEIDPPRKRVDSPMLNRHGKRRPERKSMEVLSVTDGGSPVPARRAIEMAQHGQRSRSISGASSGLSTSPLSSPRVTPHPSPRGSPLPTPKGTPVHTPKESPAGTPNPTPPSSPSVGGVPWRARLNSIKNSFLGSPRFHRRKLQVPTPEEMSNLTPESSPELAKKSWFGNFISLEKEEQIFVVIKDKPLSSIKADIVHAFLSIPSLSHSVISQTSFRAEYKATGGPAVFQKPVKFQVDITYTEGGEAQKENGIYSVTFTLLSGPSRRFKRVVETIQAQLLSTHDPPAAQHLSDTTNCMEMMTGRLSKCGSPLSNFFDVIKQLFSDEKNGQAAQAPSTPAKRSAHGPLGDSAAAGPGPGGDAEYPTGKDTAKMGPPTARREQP

SMILES	target or system	test	test system	setting	endpoint	result
CCOC(=O)CNC(=O)CO/N=c1\cc2n(-c3ccc(Cl)cc3)c3ccccc3nc-2cc1Nc1ccc(Cl)cc1	Neisseria gonorrhoeae	microbial growth	ATCC49226	–	MIC	3.75 µM
CN(C)c1cc(NC(=O)c2ccccn2)c(O)c2c1C[C@H]1C[C@H]3[C@H](N(C)C)C(O)=C(C(N)=O)C(=O)[C@@]3(O)C(O)=C1C2=O	Mycobacterium tuberculosis	microbial growth, broth dilution	H37RV	7 days, pH 7.4	MIC	> 200 µg/mL
COc1ccc(-c2ccc3ncc4c(c3c2)n(-c2ccc(N3CCNCC3)c(C(F)(F)F)c2)c(=O)n4C)cn1	Staphylococcus aureus	microbial growth	NCTC8325	–	MIC	> 30 µM
CC(=NNC(N)=S)c1ccc(Nc2nnc(-c3ccc(Cl)cc3)c3ccccc23)cc1	MCF7	cell growth or viability, MTT	–	1.25 µM, 24 h	viability	5.53%
CN(C)c1cc(NC(=O)Cc2cnccn2)c(O)c2c1C[C@H]1C[C@H]3[C@H](N(C)C)C(O)=C(C(N)=O)C(=O)[C@@]3(O)C(O)=C1C2=O	Mycobacterium tuberculosis	microbial growth, broth dilution	H37RV	7 days, pH 7.4	MIC	0.8 µg/mL
Cc1cc([C@@H](C)Nc2ccccc2C(=O)O)c2nc(N3CCC(F)(F)CC3)c(C#N)c(=O)n2c1	Casein kinase I isoform gamma-2 (CSNK1G2, Homo sapiens, UniProt P78368)	binding, competition with immobilised ligand	–	10 µM	remaining binding	100%
Cc1[nH]c(C(=O)Nc2ccc(C(=O)NCc3n[nH]c(=O)o3)cc2N2CCNCC2)c(Cl)c1Cl.Cl	Klebsiella pneumoniae	microbial growth, broth dilution	ATCC700603	–	MIC	> 32 µg/mL
CN[C@H](CC(C)C)C(=O)N[C@H]1C(=O)N[C@@H](CC(N)=O)C(=O)N[C@H]2C(=O)N[C@H]3C(=O)N[C@H](C(=O)N[C@H](C(=O)O)c4cc(O)cc(O)c4-c4cc3ccc4O)[C@H](O)c3ccc(c(Cl)c3)Oc3cc2cc(c3O[C@@H]2O[C@H](CO)[C@@H](O)[C@H](O)[C@H]2O[C@H]2C[C@](C)(N)[C@H](O)[C@H](C)O2)Oc2ccc(cc2Cl)[C@H]1O	Streptococcus pneumoniae	microbial growth	PRSP	–	MIC	1 µg/mL
O=C(O)c1cn(C2CC2)c2cc(N3CCNCC3)c(F)cc2c1=O	Klebsiella pneumoniae	microbial growth, broth dilution	ATCC27736	–	MIC	0.03 µM
CN(Cc1ccc(C(C)(C)C)cc1)Cc1cccc2ccccc12	Trichophyton rubrum	microbial growth, broth dilution	ATCC28188	6 days	MIC	60 µg/mL
CN(C)c1cc(NC(=O)Cc2cccnc2)c(O)c2c1C[C@H]1C[C@H]3[C@H](N(C)C)C(O)=C(C(N)=O)C(=O)[C@@]3(O)C(O)=C1C2=O	Mycobacterium tuberculosis	microbial growth, broth dilution	H37RV	7 days, pH 7.4	MIC	0.8 µg/mL
CNc1ncc2c(/C=C/C(=O)N3CCC(OC)CC3)nn(Cc3cccc(C(F)(F)F)c3)c2n1	Calcium/calmodulin-dependent protein kinase kinase 2 (CAMKK2, Homo sapiens, UniProt Q96RR4)	enzyme activity, inhibitor, radiometric	–	1 µM	remaining activity	77%
CC(=O)N1CCN(c2ccc(OCC3COC(Cn4ccnc4)(c4ccc(Cl)cc4Cl)O3)cc2)CC1 (centres unmarked)	Candida albicans	microbial growth, broth dilution	SP3902	48 h	MIC	4 µM
COc1cc2c(Oc3ccc4[nH]c(C)cc4c3F)ncnc2cc1OCCCN1CCCC1	Staphylococcus aureus	microbial growth	NCTC8325	–	MIC	> 30 µM
O=C(Nc1ccc(Oc2nnc(-c3ccc(Cl)cc3)c3ccccc23)cc1)c1ccccc1	MCF7	cell growth or viability, MTT	–	0.156 µM, 24 h	viability	22.4%
C[C@@H](O)[C@H]1C(=O)N2C(C(=O)O)=C(S[C@@H]3CN[C@H](C(=O)N(C)C)C3)[C@H](C)[C@H]12	Klebsiella pneumoniae	microbial growth, broth dilution	ATCC13883	20 h	MIC	< 0.5 µg/mL
CN(C)c1cc(NC(=O)Cc2ccn(C)n2)c(O)c2c1C[C@H]1C[C@H]3[C@H](N(C)C)C(O)=C(C(N)=O)C(=O)[C@@]3(O)C(O)=C1C2=O	Mycobacterium tuberculosis	microbial growth, broth dilution	H37RV	7 days, pH 7.4	MIC	0.8 µg/mL
C=CC(=O)N1CCC(COCC(=O)N2CCN(c3nc(-c4cnc(N)nc4C(F)F)nc(N4CCOC[C@@H]4C)n3)CC2)CC1	Calcium/calmodulin-dependent protein kinase kinase 1 (CAMKK1, Homo sapiens, UniProt Q8N5S9)	binding, competition with immobilised ligand	–	1 µM	remaining binding	98%
C#CCOC(=O)ON=C1C=CC(=C(C#N)c2ccccc2)C=C1	Candida tropicalis	microbial growth, broth dilution	ATCC13803	48 h	MIC	8 µg/mL

SMILES	target or system	test	test system	setting	endpoint	result
CC(C)(C)c1cc(NC(=O)Nc2ccccc2)no1	Staphylococcus aureus	microbial growth	NCTC8325	–	MIC	> 100 µM
Cc1c(CN(C)C(=O)/C=C/c2cnc3c(c2)CC(CCN)C(=O)N3)oc2ccccc12.Cl (centres unmarked)	Klebsiella pneumoniae	microbial growth, broth dilution	–	–	MIC	32 µg/mL
O=C1C(Br)=C(Br)C(=O)c2ccccc21	Candida tropicalis	microbial growth, broth dilution	ATCC13803	24 h	MIC	3.12 µg/mL
NC[C@H]1O[C@H](O[C@H]2[C@H](O)[C@@H](O[C@H]3O[C@H](CO)[C@@H](O)[C@H](N)[C@H]3O)[C@H](N)C[C@@H]2N)[C@H](N)C[C@@H]1O	Pseudomonas aeruginosa	microbial growth, broth dilution	–	clinical isolate	MIC	9.6 µM
Cc1nc(NC(=O)N2CCC[C@H]2C(N)=O)sc1-c1csc(C(C)(C)C)n1	Staphylococcus aureus	microbial growth	NCTC8325	–	MIC	> 30 µM
CN(C)c1cc(NC(=O)Cc2cscn2)c(O)c2c1C[C@H]1C[C@H]3[C@H](N(C)C)C(O)=C(C(N)=O)C(=O)[C@@]3(O)C(O)=C1C2=O	Mycobacterium tuberculosis	microbial growth, broth dilution	H37RV	7 days, pH 7.4	MIC	0.8 µg/mL
CCCCC(=O)Nc1ccc(-c2ccc3ncn(CCC)c(=O)c3c2)cn1	Non-receptor tyrosine-protein kinase TYK2, JH1 (TYK2, Homo sapiens, UniProt P29597)	binding, competition with immobilised ligand	–	0.5 µM	remaining binding	90%
O=S(=O)(Nc1nccs1)c1ccc(N=NN(O)c2ccccc2)cc1	–	ABTS scavenging	–	240 µg/mL	inhibition	89.1%
OC(Cn1cncn1)(Cn1cncn1)c1ccc(F)cc1F	Candida albicans	microbial growth, broth dilution	SC5314	24 h	MIC	3.12 µM
CN(C)c1cc(NC(=O)c2ccccc2)c(O)c2c1C[C@H]1C[C@H]3[C@H](N(C)C)C(O)=C(C(N)=O)C(=O)[C@@]3(O)C(O)=C1C2=O	Mycobacterium tuberculosis	microbial growth, broth dilution	H37RV	7 days, pH 7.4	MIC	25 µg/mL
CN(C(=O)Nc1ccc(Cl)c(C(F)(F)F)c1)c1ccc2c(c1)OC(F)(F)O2	Staphylococcus aureus	microbial growth	NCTC8325	24 h	MIC	> 100 µM
CC(=O)NC[C@H]1CN(c2ccc(N3CCOCC3)c(F)c2)C(=O)O1	Staphylococcus aureus	microbial growth, broth dilution	ATCC6538	–	MIC	2 µM
CNC(=O)Nc1ccc(-c2nc(N3CC4CCC(C3)O4)c3cnn(C4CCC5(CC4)OCCO5)c3n2)cc1	Staphylococcus aureus	microbial growth	NCTC8325	–	MIC	> 30 µM
COc1cc(-c2cncc3c2CN(C)Cc2cc(N4CCNCC4)ccc2-3)cc(OC)c1OC	Serine/threonine-protein kinase BRSK2 (BRSK2, Homo sapiens, UniProt Q8IWQ3)	enzyme activity, inhibitor	–	1 µM	remaining activity	118%
Cc1ccc(NC(=O)Nc2cc(C(C)(C)C)on2)cc1	Staphylococcus aureus	microbial growth	NCTC8325	–	MIC	> 100 µM
C=CC(=O)ON=C1C=CC(=C(C#N)c2ccccc2)C=C1	Candida tropicalis	microbial growth, broth dilution	ATCC13803	48 h	MIC	8 µg/mL
Cc1cc(NS(=O)(=O)c2ccc(N=NN(C)O)cc2)no1	–	ABTS scavenging	–	300 µg/mL	inhibition	55%
CC(=O)NC[C@H]1CN(c2ccc(N3CCOCC3)c(F)c2)C(=O)O1	Staphylococcus aureus	microbial growth	NCTC8325	–	MIC	3 µM
OC(Cn1cncn1)(Cn1cncn1)c1ccc(F)cc1F	Candida albicans	microbial growth	SC5314	–	MIC	0.5 µg/mL

Some of these lines once more:
SMILES	target or system	test	test system	setting	endpoint	result
CC(=O)N1CCN(c2ccc(OCC3COC(Cn4ccnc4)(c4ccc(Cl)cc4Cl)O3)cc2)CC1 (centres unmarked)	Candida albicans	microbial growth, broth dilution	SP3902	48 h	MIC	4 µM
CCCCC(=O)Nc1ccc(-c2ccc3ncn(CCC)c(=O)c3c2)cn1	Non-receptor tyrosine-protein kinase TYK2, JH1 (TYK2, Homo sapiens, UniProt P29597)	binding, competition with immobilised ligand	–	0.5 µM	remaining binding	90%
OC(Cn1cncn1)(Cn1cncn1)c1ccc(F)cc1F	Candida albicans	microbial growth, broth dilution	SC5314	24 h	MIC	3.12 µM
C#CCOC(=O)ON=C1C=CC(=C(C#N)c2ccccc2)C=C1	Candida tropicalis	microbial growth, broth dilution	ATCC13803	48 h	MIC	8 µg/mL
COc1cc(-c2cncc3c2CN(C)Cc2cc(N4CCNCC4)ccc2-3)cc(OC)c1OC	Serine/threonine-protein kinase BRSK2 (BRSK2, Homo sapiens, UniProt Q8IWQ3)	enzyme activity, inhibitor	–	1 µM	remaining activity	118%
COc1cc2c(Oc3ccc4[nH]c(C)cc4c3F)ncnc2cc1OCCCN1CCCC1	Staphylococcus aureus	microbial growth	NCTC8325	–	MIC	> 30 µM
